Values quoted from earlier work that unrelated publications cite.
Compare with care: the assays were run in different laboratories. Numbers after ± are the reported error.
Chain of UniProt Q14164 (whole entry, looked up): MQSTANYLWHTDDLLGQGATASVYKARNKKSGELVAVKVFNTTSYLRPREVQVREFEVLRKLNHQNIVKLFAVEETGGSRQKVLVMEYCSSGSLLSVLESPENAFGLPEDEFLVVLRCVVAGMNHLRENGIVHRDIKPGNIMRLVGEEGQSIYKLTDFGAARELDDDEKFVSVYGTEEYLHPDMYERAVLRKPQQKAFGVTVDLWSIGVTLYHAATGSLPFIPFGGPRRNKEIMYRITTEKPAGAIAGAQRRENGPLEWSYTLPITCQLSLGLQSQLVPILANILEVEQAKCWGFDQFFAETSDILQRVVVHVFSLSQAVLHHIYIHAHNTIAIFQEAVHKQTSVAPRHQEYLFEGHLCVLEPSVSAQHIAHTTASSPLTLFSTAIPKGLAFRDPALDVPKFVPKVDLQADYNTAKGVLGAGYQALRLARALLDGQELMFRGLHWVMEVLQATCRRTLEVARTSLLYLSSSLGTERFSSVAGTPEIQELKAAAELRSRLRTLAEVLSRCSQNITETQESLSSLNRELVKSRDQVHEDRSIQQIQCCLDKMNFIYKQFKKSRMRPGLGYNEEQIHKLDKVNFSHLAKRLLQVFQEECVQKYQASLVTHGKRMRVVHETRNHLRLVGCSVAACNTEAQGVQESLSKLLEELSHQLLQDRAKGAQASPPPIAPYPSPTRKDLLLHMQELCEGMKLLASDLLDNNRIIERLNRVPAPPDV

SMILES	tested on	assay	test system	conditions	scale	quantity	value
CCCCCCCCc1c(C)[nH]c(C)c(C#N)c1=O	Plasmodium falciparum	whole cell extended time	3D7	72 h		IC50	400 nM
CC(=O)O[C@H](C)C(=O)CCCCC[C@@H]1NC(=O)[C@H]2CCCN2C(=O)[C@H](Cc2ccccc2)NC(=O)C(C)(C)NC1=O	Plasmodium falciparum					IC50	22.1 nM
O=C(/C=C/c1cccc(S(=O)(=O)Nc2ccccc2)c1)NO	Plasmodium falciparum	parasite growth	3D7			IC50	115 ± 78 nM
Nc1cc(C(F)(F)F)c(-c2nc(N3CCOCC3)nc(N3CCOCC3)n2)cn1	IKBKE (Homo sapiens, UniProt Q14164)	enzyme activity		10 µM	relative to: untreated	remaining activity	100%
Cc1[nH]c(C)c(-c2ccc(-c3ccc(Cl)cc3)cc2)c(=O)c1Cl	Plasmodium falciparum	whole cell extended time	3D7	72 h		IC50	210 nM
Cc1[nH]c2ccccc2c1CCNCc1ccc(/C=C/C(=O)NO)cc1	Plasmodium falciparum	parasite growth	3D7			IC50	7 ± 4 nM
C[C@@H](O)C(=O)CCCCC[C@@H]1NC(=O)[C@H]2CCCN2C(=O)[C@H](Cc2ccccc2)NC(=O)C(C)(C)NC1=O	Plasmodium falciparum					IC50	17.4 nM
CCCCN(CCCC)CC(O)c1cc(Cl)cc2c1-c1ccc(Cl)cc1/C2=C/c1ccc(Cl)cc1 (centres unmarked)	Plasmodium falciparum		3D7			IC50	6.4 ± 3.2 nM
COc1cc(O)c2c(c1O)-c1nccc(C)c1C2=O	Plasmodium falciparum		Dd2			IC50	11400 nM
C/C=C/COc1ccc(-c2c(C)[nH]c(C)c(Cl)c2=O)cc1	Plasmodium falciparum	whole cell extended time	3D7	72 h		IC50	200 nM
N/C(CC(O)c1cc2c(F)cc(F)cc2c2cc(C(F)(F)F)ccc12)=N\c1ccc(F)cc1 (centres unmarked)	Plasmodium falciparum		3D7			IC50	2.3 ± 1.1 nM

A few entries again:
SMILES	tested on	assay	test system	conditions	scale	quantity	value
CCCCCCCCc1c(C)[nH]c(C)c(C#N)c1=O	Plasmodium falciparum	whole cell extended time	3D7	72 h		IC50	400 nM
N/C(CC(O)c1cc2c(F)cc(F)cc2c2cc(C(F)(F)F)ccc12)=N\c1ccc(F)cc1 (centres unmarked)	Plasmodium falciparum		3D7			IC50	2.3 ± 1.1 nM
